# Results collected from several papers.
# Every numbered part comes from another study and shows a few of its results, in no order.
# Sequence of UniProt Q9P2K8 (whole entry, unmodified, looked up): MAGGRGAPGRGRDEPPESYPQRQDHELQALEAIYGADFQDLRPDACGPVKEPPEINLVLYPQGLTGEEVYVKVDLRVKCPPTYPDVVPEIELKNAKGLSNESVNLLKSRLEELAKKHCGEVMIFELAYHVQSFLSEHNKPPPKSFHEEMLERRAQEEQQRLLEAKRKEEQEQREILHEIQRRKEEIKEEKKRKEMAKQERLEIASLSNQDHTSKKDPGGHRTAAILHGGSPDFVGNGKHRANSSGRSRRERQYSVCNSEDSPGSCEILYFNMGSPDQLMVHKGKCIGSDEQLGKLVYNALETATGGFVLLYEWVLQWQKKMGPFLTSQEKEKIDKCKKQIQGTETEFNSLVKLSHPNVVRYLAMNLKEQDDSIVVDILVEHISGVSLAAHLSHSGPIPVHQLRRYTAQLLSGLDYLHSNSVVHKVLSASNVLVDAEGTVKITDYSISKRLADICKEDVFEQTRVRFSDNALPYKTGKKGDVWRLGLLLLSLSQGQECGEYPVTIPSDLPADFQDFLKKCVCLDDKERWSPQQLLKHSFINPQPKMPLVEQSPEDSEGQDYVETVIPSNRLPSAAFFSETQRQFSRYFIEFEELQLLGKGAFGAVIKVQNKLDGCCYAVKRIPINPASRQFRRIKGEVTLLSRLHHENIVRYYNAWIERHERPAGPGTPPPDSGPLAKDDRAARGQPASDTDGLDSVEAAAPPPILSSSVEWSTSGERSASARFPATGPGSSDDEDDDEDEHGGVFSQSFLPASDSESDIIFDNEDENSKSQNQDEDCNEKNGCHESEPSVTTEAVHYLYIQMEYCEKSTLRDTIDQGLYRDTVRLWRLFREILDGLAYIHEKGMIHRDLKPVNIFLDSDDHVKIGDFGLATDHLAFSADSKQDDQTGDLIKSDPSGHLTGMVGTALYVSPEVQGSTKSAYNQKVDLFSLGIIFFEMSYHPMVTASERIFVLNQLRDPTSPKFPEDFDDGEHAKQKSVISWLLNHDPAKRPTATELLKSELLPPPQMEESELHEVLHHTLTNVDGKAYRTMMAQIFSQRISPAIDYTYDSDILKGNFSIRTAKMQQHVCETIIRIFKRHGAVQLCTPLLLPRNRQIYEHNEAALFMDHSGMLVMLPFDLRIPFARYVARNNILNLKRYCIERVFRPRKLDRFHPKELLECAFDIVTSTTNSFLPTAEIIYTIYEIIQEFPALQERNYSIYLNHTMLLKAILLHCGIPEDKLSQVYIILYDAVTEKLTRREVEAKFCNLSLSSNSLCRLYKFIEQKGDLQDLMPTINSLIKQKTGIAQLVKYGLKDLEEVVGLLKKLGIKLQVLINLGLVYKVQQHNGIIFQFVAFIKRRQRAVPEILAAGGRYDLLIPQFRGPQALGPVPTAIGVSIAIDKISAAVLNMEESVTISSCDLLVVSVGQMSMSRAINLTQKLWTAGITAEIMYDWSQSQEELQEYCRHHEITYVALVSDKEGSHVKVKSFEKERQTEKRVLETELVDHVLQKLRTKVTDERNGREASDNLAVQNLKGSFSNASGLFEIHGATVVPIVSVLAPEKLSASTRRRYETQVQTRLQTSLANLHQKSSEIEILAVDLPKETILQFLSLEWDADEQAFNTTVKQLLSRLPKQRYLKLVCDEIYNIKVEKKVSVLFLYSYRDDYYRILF
# Sequence of UniProt O75116 (whole entry, looked up): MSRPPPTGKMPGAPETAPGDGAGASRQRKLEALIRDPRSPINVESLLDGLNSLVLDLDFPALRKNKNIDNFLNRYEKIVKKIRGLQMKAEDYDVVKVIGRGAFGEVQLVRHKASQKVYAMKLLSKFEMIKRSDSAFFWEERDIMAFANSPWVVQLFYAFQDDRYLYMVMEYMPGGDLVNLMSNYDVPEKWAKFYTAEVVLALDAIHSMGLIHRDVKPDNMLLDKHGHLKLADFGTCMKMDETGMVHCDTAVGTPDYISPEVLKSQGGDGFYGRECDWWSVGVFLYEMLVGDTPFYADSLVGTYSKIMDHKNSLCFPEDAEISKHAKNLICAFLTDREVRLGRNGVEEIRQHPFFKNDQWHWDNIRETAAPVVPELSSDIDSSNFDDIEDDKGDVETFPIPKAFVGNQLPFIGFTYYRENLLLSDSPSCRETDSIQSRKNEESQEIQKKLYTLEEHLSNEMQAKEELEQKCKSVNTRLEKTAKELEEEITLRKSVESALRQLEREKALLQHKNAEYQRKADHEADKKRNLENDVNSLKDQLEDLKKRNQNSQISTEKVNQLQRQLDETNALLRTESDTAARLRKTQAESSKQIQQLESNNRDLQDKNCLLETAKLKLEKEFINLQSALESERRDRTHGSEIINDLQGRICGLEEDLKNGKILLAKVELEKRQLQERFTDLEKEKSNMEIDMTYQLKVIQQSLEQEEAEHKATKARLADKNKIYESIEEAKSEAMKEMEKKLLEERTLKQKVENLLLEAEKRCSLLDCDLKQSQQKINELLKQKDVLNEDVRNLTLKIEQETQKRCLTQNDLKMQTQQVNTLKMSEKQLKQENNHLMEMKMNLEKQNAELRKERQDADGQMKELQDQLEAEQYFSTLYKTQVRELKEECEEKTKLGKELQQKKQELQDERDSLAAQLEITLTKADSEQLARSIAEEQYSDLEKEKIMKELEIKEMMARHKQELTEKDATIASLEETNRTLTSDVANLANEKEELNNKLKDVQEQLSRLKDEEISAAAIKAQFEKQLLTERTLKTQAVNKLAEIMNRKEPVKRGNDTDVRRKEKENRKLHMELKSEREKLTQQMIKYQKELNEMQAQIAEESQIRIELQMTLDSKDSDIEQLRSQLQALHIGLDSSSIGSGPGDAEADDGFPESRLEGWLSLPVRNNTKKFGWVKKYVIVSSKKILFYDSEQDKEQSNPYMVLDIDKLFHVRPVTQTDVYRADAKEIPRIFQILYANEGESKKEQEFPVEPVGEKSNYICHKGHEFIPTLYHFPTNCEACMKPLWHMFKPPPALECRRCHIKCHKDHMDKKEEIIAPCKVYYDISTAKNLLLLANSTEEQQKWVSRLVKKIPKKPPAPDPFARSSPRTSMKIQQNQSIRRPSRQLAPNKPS
# Sequence of UniProt Q9UQB9 (whole entry, looked up): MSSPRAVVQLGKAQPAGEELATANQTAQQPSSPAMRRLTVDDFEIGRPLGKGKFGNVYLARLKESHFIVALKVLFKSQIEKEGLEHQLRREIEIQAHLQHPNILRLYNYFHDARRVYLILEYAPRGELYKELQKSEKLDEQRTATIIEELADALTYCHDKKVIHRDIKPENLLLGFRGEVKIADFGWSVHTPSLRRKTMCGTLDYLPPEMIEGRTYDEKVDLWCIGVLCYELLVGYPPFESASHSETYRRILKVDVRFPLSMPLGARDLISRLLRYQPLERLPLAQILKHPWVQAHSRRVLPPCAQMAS
# Sequence of UniProt O00329 (whole entry, looked up): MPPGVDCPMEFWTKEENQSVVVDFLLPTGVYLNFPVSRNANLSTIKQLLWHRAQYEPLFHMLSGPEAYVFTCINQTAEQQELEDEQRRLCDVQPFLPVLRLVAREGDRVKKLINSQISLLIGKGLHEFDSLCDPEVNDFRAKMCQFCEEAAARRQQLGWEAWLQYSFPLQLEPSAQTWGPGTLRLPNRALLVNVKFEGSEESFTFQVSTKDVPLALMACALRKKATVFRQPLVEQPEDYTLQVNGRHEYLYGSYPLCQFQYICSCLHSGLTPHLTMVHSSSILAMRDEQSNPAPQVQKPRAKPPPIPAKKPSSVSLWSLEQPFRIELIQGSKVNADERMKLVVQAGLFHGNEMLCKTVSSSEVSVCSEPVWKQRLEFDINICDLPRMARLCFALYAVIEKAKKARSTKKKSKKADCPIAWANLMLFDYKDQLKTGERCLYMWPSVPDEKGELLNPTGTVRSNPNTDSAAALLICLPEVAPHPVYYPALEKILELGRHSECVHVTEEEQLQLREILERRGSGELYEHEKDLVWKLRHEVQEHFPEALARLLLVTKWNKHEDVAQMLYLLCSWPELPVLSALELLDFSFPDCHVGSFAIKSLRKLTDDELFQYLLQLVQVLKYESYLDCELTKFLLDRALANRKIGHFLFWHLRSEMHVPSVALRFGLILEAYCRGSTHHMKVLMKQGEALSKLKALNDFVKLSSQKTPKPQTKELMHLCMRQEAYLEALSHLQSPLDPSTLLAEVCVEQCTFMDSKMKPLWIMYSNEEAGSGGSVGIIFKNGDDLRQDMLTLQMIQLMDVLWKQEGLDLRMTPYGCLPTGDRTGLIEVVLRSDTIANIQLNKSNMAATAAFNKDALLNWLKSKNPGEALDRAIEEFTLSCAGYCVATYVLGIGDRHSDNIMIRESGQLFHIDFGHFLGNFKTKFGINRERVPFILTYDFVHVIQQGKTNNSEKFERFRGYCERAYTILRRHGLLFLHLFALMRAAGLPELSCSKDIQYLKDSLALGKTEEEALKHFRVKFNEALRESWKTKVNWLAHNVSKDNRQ

# Set 1
# SMILES: CNC(=O)c1ccc(Nc2ncc(C(F)(F)F)c(NCc3nccnc3N(C)S(C)(=O)=O)n2)cc1
# Effect on: cell-free assay
# Method: competition with immobilised ligand
# Concentration: 0.1 µM
target,remaining binding
"PIK3CD (Homo sapiens, UniProt O00329)",90%
"eIF-2-alpha kinase GCN2, C-terminal kinase domain (EIF2AK4, Homo sapiens, UniProt Q9P2K8, S808G)",27%
"HASPIN (Homo sapiens, UniProt Q8TF76)",100%
"Aurora kinase C (AURKC, Homo sapiens, UniProt Q9UQB9)",47%
"ROCK2 (Homo sapiens, UniProt O75116)",100%

# Set 2
# Target: Tyrosine-protein kinase ZAP-70 (ZAP70, Homo sapiens, UniProt P43403)
# Sequence of UniProt P43403 (whole entry, looked up): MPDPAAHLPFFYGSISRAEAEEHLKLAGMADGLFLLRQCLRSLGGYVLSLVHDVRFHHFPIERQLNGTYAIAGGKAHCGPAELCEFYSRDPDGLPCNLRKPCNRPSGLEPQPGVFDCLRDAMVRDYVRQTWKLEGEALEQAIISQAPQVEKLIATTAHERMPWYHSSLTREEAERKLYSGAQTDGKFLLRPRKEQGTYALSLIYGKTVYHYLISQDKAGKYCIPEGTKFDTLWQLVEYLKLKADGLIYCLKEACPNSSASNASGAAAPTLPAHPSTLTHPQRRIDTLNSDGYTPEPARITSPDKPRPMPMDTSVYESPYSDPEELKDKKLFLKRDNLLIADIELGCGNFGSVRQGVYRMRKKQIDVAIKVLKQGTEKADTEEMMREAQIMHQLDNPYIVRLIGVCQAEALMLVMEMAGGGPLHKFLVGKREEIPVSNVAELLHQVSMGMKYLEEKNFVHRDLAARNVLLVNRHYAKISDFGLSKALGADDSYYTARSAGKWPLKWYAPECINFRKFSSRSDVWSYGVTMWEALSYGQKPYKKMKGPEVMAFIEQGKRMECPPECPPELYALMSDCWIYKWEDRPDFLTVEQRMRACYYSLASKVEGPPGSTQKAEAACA
# Effect on: enzyme activity
# Mode: inhibitor
# Concentration: 0.5 µM
# Baseline: control
Compound,remaining activity [%]
N#Cc1c(NC(=O)c2cccc3ccccc23)sc2c1CCCC2,95
CCOc1nc(NC(=O)Cc2cc(OC)ccc2OC)cc(N)c1C#N,90.6
c1ccc(-c2cnc(Nc3ccc(OCCN4CCCC4)cc3)s2)cc1,105
O=c1cc(-c2cccc3c2Sc2ccccc2S3)oc(N2CCOCC2)c1,97.1
N#C/C(=C\c1ccc(O)c(O)c1)C(=O)NCc1ccccc1,101
O=C(NC(NC(=S)Nc1ccc(F)c([N+](=O)[O-])c1)C(Cl)(Cl)Cl)C(c1ccccc1)c1ccccc1 (stereo not shown),94.2
Cc1cc2ncc(-c3ccccc3)nc2cc1C,96.7
COc1cc2c(cc1OC)-c1[nH]nc(Nc3cccc(F)c3)c1C2,95.3
CN(C)C[C@H]1CCn2c(c(C3=C(c4cn(C)c5ccccc45)C(=O)NC3=O)c3ccccc32)C1,105
O=C1C(Cl)=C(N2C(=O)CCC2=O)C(=O)c2ccccc21,93.8
O=C(Nc1cccc(Nc2nccc(Nc3cccc(C(F)(F)F)c3)n2)c1)C1CC1,126

# Set 3
# Host: mouse
# Matrix: microsomes or S9
# Concentration: 2 µM
# Time: 0.5 h
Structure (SMILES),remaining compound
O=c1[nH]c(N2CCCC2)nc2ncc3c(c12)CCC3,10.5%
O=S1(=O)c2cccc3cccc(c23)N1CCc1ccccc1,17.6%
Cc1nn(C)cc1-c1cncn1C(C)Cc1c(C)nn(C)c1C (stereo not shown),45%
Cc1ccc2c(c1)N(C(=O)c1ccncc1)CC(C)O2 (stereo not shown),93.3%
O=C(Nc1ccncc1)c1nn(-c2ccc(F)cc2)c2c1CCc1ccccc1-2,84.5%

# Mixed results
SMILES,method,host,dose,setting,quantity,result
CC(C)n1cnc(-c2ccc(F)cc2)c1-c1ncc(C(=O)Nc2ccc(N3CCN(C)CC3)cc2)[nH]1,phase 2a trial,idiopathic pulmonary fibrosis patients,60 mg once daily,adverse event grade 2,patients with cardiac disorders,0%
